Assay results from different studies.
Each line is one published result; not all experiments were run side by side. ± marks the error that the study gave.
gag-pol reverse transcriptase p66/p51: Gag-Pol polyprotein, reverse transcriptase p66/p51 (gag-pol, Human immunodeficiency virus type 1 group M subtype B, UniProt P04585)
gag-pol integrase: Gag-Pol polyprotein, integrase (gag-pol, Human immunodeficiency virus type 1 group M subtype B, UniProt P04585)
gag-pol RT RNase H domain: Gag-Pol polyprotein, RT RNase H domain (gag-pol, Human immunodeficiency virus type 1 group M subtype B, UniProt P04585)

Structure (SMILES)	target	assay	system	conditions	IC50 [nM]
O=c1cc(CN2CCN(c3cccc(Cl)c3)CC2)c2ccc(O)c(O)c2o1	gag-pol reverse transcriptase p66/p51	RNase H activity, inhibitor	p66/p51 RT heterodimer	pH 8.0, with: 10 mM Mg2+	400
CCOCn1c(C(=O)c2ccccc2)c(CC)c(=O)n(O)c1=O	gag-pol integrase	strand transfer, inhibitor, gel-based	HIV-1		> 111000
O=c1cc(CN2CCN(C(c3ccccc3)c3ccccc3)CC2)c2ccc(O)c(O)c2o1	gag-pol reverse transcriptase p66/p51	RNase H activity, inhibitor, fluorescence	HIV-1	pH 7.4, with: 1 mM Mg2+	2200
COc1cc(OC)cc(-c2ccc(Sc3cc(=O)n(O)c(=O)[nH]3)cc2)c1	gag-pol integrase	strand transfer activity, inhibitor	HIV-1		> 100000
COc1cc(/C=C/c2ccc3ccc(C(=O)O)c(O)c3n2)cc(O)c1O	Gag-Pol polyprotein, integrase (gag-pol, Human immunodeficiency virus type 1 group M subtype B, UniProt P04585, C1427S)	integrase DNA binding, fluorescence anisotropy		full-length integrase, 10 mM Mg2+	750
COc1ccccc1C(=O)Nc1sc2c(c1C(=O)Nc1ccccn1)CCCCC2	gag-pol RT RNase H domain	RNase H activity, inhibitor		wild type reverse transcriptase	14200 ± 200
O=C(O)c1ccc(-c2cccc(/C=N/NC(=O)c3ccc(O)c(O)c3)c2)cc1	gag-pol RT RNase H domain	RNase H activity, inhibitor	HIV-1	with: 10 mM Mg2+	400 ± 200
COc1ccc(-c2ccc(Sc3cc(=O)n(O)c(=O)[nH]3)cc2)cc1	gag-pol integrase	strand transfer activity, inhibitor	HIV-1		> 100000
NC(=O)c1c(N)sc2c1CCCCC2	Gag-Pol polyprotein, RT polymerase domain (gag-pol, Human immunodeficiency virus type 1 group M subtype B, UniProt P04585)	RNA-dependent DNA polymerase activity, inhibitor		wild-type RT	> 50000
O=c1cc(Sc2ccccc2-c2ccc(C(F)(F)F)cc2)[nH]c(=O)n1O	gag-pol integrase	strand transfer activity, inhibitor	HIV-1		> 100000
O=C(O)c1ccc(-c2cccc(/C=N/NC(=O)c3cc(O)c(O)c(O)c3)c2)cc1	gag-pol RT RNase H domain	RNase H activity, inhibitor	HIV-1	with: 10 mM Mg2+	200 ± 100
COc1ccc(N2CCN(Cc3cc(=O)oc4c(O)c(O)ccc34)CC2)cc1	gag-pol reverse transcriptase p66/p51	RNase H activity, inhibitor, fluorescence	HIV-1	pH 7.4, with: 1 mM Mg2+	2100

A few entries again:
Structure (SMILES)	target	assay	system	conditions	IC50 [nM]
O=C(O)c1ccc(-c2cccc(/C=N/NC(=O)c3ccc(O)c(O)c3)c2)cc1	gag-pol RT RNase H domain	RNase H activity, inhibitor	HIV-1	with: 10 mM Mg2+	400 ± 200
COc1ccc(-c2ccc(Sc3cc(=O)n(O)c(=O)[nH]3)cc2)cc1	gag-pol integrase	strand transfer activity, inhibitor	HIV-1		> 100000
